Measurements pooled from the literature.
A part holds a random share of what one study measured. “And” joins repeats or separate records; there may be more than shown. Substitutions count along the parent as printed.

Sample 1
Target: CCNE1, cyclin fold, Cln2 fusion (human)
Technique: yeast growth competition, sequencing
Sample: yeast
Notes: strong parent motif
Baseline: not given
Reading: higher = stronger binding
Quantity: normalised enrichment score
Parent: BRCA2 docking peptide (human); PSIKRNLLNEFDR; partner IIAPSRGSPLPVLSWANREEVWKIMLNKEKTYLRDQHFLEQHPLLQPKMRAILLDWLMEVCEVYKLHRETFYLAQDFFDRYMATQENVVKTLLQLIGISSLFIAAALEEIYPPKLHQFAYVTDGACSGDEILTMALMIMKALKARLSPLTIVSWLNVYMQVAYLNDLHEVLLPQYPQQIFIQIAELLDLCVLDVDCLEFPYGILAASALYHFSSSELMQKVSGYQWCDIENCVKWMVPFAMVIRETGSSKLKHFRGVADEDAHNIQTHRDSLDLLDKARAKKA
Change = D12F; value = 1.7
Change = F11A; value = 0.981
Change = L7C; value = -0.147
Change = K4G; value = -0.283
Change = R13I; value = 3.13
Change = R13N; value = 2.1

Sample 2
Target: Histone acetyltransferase KAT6A, winged helix 1, GST fusion (KAT6A, Homo sapiens, UniProt Q92794, residues 1-85)
Technique: protein binding microarray
Form: double-stranded DNA, one strand shown
Sample: in vitro
Concentration: not given
Notes: 8-mer, flanks averaged, mean of 2 arrays, mostly near background
Baseline: not given
Reading: higher = stronger binding
Quantity: E-score
Target sequence (chain): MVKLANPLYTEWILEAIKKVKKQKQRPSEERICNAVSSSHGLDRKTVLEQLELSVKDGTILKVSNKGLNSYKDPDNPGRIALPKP
Strand = CTAGCAAA; value = -0.147
Strand = ACCGCCTC; value = 0.223
Strand = TCCACAGA; value = -0.219
Strand = CAGTCATG; value = 0.0548
Strand = ATCCCGTC; value = 0.322

Sample 3
Target: ABI1, truncated, D143A, DHFR fusion (Arabidopsis thaliana)
Technique: DHFR PCA, deep sequencing
Sample: yeast
Notes: methotrexate growth selection, single substitutions
Added: (+)-ABA 17 µM
Baseline: wild-type fitted maximum
Reading: higher = stronger binding
Quantity: relative binding score
Parent: PYL1, truncated, DHFR fusion (Arabidopsis thaliana); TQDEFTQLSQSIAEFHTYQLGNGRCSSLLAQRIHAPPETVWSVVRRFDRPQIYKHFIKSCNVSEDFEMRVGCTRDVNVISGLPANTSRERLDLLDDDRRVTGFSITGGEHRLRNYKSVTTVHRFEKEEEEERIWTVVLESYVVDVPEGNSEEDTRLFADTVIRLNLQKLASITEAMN
Change = E139D; value = 0.803%
Change = T154R; value = 3.3%
Change = G81T; value = 16.4%
Change = Y115D; value = -2.81%
Change = F15S; value = 20.6%
Change = T135F; value = -4.63%
Change = E38T; value = 57.7%

Single results of other studies
Molecule = PhoQ, residues 284 288 289 292 302 303 SSYNSA; target = PhoP, residues 12 14 15 18 19 LWHCS (Escherichia coli, UniProt P23836); test = Sort-seq, item: YFP reporter; system = E. coli; setting = PhoQ-PhoP variant library, added: 10 µM Mg2+; how to read = baseline: high Mg2+ state, higher = stronger signaling; quantity = fold induction; value = 17.3 and 13.4

Excerpt of the above (single results of other studies):
Molecule = PhoQ, residues 284 288 289 292 302 303 SSYNSA; target = PhoP, residues 12 14 15 18 19 LWHCS (Escherichia coli, UniProt P23836); test = Sort-seq, item: YFP reporter; system = E. coli; setting = PhoQ-PhoP variant library, added: 10 µM Mg2+; how to read = baseline: high Mg2+ state, higher = stronger signaling; quantity = fold induction; value = 17.3 and 13.4
